Measurements of several laboratories.
Each numbered part is a random draw from the data of one study; scales do not carry over between parts. Substitutions count along the parent as printed.

Study 1
Target: CCND1, cyclin fold, Cln2 fusion (human)
Technique: yeast growth competition, sequencing
Medium: yeast
Setting: weak parent motif
Relative to: not given
Direction: higher = stronger binding
Parent: SAMHD1 docking peptide (human); ASKSRVQLFKDDP
Substitution	normalised enrichment score
K10Y	0.294
K3C	0.697
S2W	0.53

Study 2
Target: RING finger protein unkempt homolog, zinc fingers 1-6, GST-SBP tag (UNK, Homo sapiens, UniProt Q9C0B0, residues 30-357)
Sequence of UniProt Q9C0B0 (30-357, looked up): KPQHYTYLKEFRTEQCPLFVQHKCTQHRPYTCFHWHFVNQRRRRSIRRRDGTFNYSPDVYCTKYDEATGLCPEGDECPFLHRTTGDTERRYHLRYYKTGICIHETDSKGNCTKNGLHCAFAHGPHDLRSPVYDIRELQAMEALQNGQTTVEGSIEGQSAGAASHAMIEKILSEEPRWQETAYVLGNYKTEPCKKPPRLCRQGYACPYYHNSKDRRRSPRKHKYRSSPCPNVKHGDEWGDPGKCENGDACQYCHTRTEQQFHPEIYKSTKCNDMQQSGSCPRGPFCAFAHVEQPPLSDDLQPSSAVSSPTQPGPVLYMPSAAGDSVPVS
Technique: RNA Bind-n-Seq
Molecule type: RNA
Medium: in vitro
Concentration: not given
Setting: RNA with constant flanks, ends assumed
Relative to: input RNA pool
Direction: higher = stronger binding
Oligonucleotide	bound/input enrichment [ratio]
GGGAGUUCUACAGUCCGACGAUCAAAUGCUCAGUUCUAACUAAUGAAAUGGAUUUCCCAGUAGGGGUUUCUGCAUAUCACCUGUACCGCCGUUAUAUGCAUAUGUUUCUGUGCAUGUUCUCUACACAAUUGUAAGGUGUCACUCAACAGAGGAUUGAGCAUCA	0.291
GGGAGUUCUACAGUCCGACGAUCAAGAAAAAGAAAAUGCCGAAGCCAAUCAAUGUAAGAGUAACUACAAUGGACGCUGAGCCCGAAUUUGCCAUCCAGCCCAAUACAACUGGCAAACAACUUUUUGACCAGGUUGUAAAAACACAACAGAGGAUUGAGCAUCA	0.355
GGGAGUUCUACAGUCCGACGAUCGUUAGAAAAAGAAUUACAGCUUUGCAAUAUAACUAAUUGUUUCGCAUAAUUCUGAAUGUAACCGAUAUGAAUAAUCAGCCUGUGUUUUUAAUGAACUUAUUUGUAUUUUCCCAAUCAUUUCAACAGAGGAUUGAGCAUCA	0.437

Study 3
Target: Interferon regulatory factor 3, full length, phosphomimetic (IRF3, Homo sapiens, UniProt Q14653, residues 1-427, S386D/S396D/S398D/S402D/T404D/S405D)
Technique: protein-binding microarray
Molecule type: double-stranded DNA, one strand shown
Medium: in vitro
Concentration: 2540 nM top
Setting: 60-bp whole probe
Together with: salmon DNA 0.4 mg/ml
Relative to: random background probes
Direction: higher = stronger binding
Target sequence (chain): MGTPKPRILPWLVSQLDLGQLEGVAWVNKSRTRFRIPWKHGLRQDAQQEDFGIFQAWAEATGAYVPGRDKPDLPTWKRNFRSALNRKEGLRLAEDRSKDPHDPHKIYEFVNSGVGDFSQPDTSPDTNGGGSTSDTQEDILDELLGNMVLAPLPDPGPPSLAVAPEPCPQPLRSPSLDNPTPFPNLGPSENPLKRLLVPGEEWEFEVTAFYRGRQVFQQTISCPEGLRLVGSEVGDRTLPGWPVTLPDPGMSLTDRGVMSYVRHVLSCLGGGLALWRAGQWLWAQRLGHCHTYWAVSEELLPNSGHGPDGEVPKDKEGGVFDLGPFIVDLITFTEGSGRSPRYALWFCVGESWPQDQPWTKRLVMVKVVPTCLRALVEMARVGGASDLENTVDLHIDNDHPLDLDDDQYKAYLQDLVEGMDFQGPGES
Oligonucleotide	fitted relative affinity
GCCTAGCACGACGGTTTCGGGCCTGGGGACGTGCTAGTCTTGATTCGCTTGACGCTGCTG	2.92 z-score
GCCTAGCACTCAAACTTGTATTTGTCACTGTGCTAGGTCTTGATTCGCTTGACGCTGCTG	-0.0842 z-score
GCCTAGCACTTAGATTTCAGTATCGAATAGTGCTAGGTCTTGATTCGCTTGACGCTGCTG	2.4 z-score
GCCTAGCACCTCACCGCCAACCCAGTTCCGTGCTAGGTCTTGATTCGCTTGACGCTGCTG	0.0688 z-score

Further values, each from its own experiment
Substance	target	test	test system	setting	how to read	endpoint	value
PhoQ, residues 284 288 289 292 302 303 MLMVEA	PhoP, residues 12 14 15 18 19 TPWLV (Escherichia coli, UniProt P23836)	Sort-seq, item: YFP reporter	E. coli	PhoQ-PhoP variant library, together with: 10 µM Mg2+	relative to: high Mg2+ state, higher = stronger signaling	fold induction	21.5

Some of these lines once more (study 3):
Oligonucleotide	fitted relative affinity
GCCTAGCACCTCACCGCCAACCCAGTTCCGTGCTAGGTCTTGATTCGCTTGACGCTGCTG	0.0688 z-score
